Measurements of several laboratories.
Compare with care: the assays were run in different laboratories. Numbers after ± are the reported error.

`CNC(=O)c1ncn2c(=O)n(C)nnc12` — result for “brain to serum ratio”: over 3 fold (CD-1 IGS mice, brain and serum; intravenous, 25 mg/kg, 5 min; baseline: temozolomide).
For `CC(C)CCN(Cc1ccc(F)cc1)c1nc(C#N)nc(N2CCOCC2)n1`, the brain concentration was 90.8 ng/g (female CD-1 mice; intraperitoneal, 10 mg/kg, 0.5 h).
Under brain concentration, `COc1ccc(OC)c(C(=Cc2ccc(O)c(OC)c2)C(=O)NCCc2ccc(O)cc2)c1` is recorded as “decreased” (C57BL mice, pseudo-germ-free, brain; oral, 75 mg/kg, 8 weeks; baseline: control mice).
The brain uptake of `COc1cc2c(cc1OC)CN(CCCCn1ccc3cc(OCC[18F])ccc31)C2` is reported as 3.7 ± 0.26 %ID/g (male ICR mice; intravenous, 15 min post-injection).
`C[C@H](Oc1cc(-c2cnn(C3CCN(CC[18F])CC3)c2)cnc1N)c1c(Cl)ccc(F)c1Cl` — result for “brain clearance time”: at most 30 min (PET; healthy nude mice, brain).
For `Cc1cc2c(c(=O)o1)C=C1CCC(C(C)CNCc3ccc(O)cc3)CC1O2` (stereo not shown), the brain concentration was 5950 ± 660 nM (HPLC-MS; wild-type mice; oral in drinking water, dose not given, two months).
The brain concentration of `COc1ccc(OC)c(/C(=C\c2ccc(O)c(O)c2)C(=O)NCCc2ccc(O)cc2)c1` is reported as under 0.1 ng/mL (KM mice, brain; oral, 50 mg/kg, below detection limit).
The brain concentration of `N#Cc1nc(N2CCOCC2)nc(N(Cc2ccc(F)cc2)CC2CCCNC2)n1` (stereo not shown) is reported as 16.6 ng/g (female CD-1 mice; intraperitoneal, 10 mg/kg, 4 h).
With `CC(C)(O)c1ccc(N2Cc3c(ccnc3-c3ccc(F)cc3OCC(F)(F)F)C2=O)cc1` the brain concentration was about 45 nM (C57BL/6J mice male, brain; oral, 10 mg/kg, 6 h).
`COc1cc2c(cc1OC)CC(=O)N(C[C@H]1CCCN(CCOc3ccc(F)cc3)C1)CC2` — result for “brain concentration ratio”: over 1 (C57BL/6 mice, brain; intraperitoneal, 20 mg/kg, 15 min; baseline: compound over cilobradine).

A few entries again:
`C[C@H](Oc1cc(-c2cnn(C3CCN(CC[18F])CC3)c2)cnc1N)c1c(Cl)ccc(F)c1Cl` — result for “brain clearance time”: at most 30 min (PET; healthy nude mice, brain).
